Assay results gathered from unrelated publications.
Parts stem from different laboratories: compare values within a part only. Values joined by “and” are separate records of one study, mostly repeats; a detail may differ.

Set 1
Cell line: A-375
Concentration: 100 µM
Time: 36 h
| SMILES | viability [%] |
| --- | --- |
| CN1C(=O)COc2c(C(=O)NC3CN4CCC3CC4)cc(Cl)cc21 (stereo not drawn) | 96 |
| CCCC(C)(COC(N)=O)COC(=O)NC(C)C (stereo not drawn) | 85 |
| Nc1ccncc1 | 102 |
| N=C(N)NN | 124 |
| NCC1(CC(=O)O)CCCCC1 | 109 |
| C[C@@H]1O[C@@H](O[C@H]2C[C@@H](O)[C@]3(CO)[C@H]4[C@H](O)C[C@]5(C)[C@@H](C6=CC(=O)OC6)CC[C@]5(O)[C@@H]4CC[C@]3(O)C2)[C@H](O)[C@H](O)[C@H]1O | 29.9 |
| CCO[C@H]1O[C@@H]2O[C@@]3(C)CC[C@H]4[C@H](C)CC[C@@H]([C@H]1C)[C@@]24OO3 | 43 |
| CCOP(=S)(OCC)Oc1cc(C)nc(C(C)C)n1 | 11.8 |
| CC(C)C[C@H](CN)CC(=O)O | 124 |
| Cc1c(N)nc([C@H](CC(N)=O)NC[C@H](N)C(N)=O)nc1C(=O)N[C@H](C(=O)N[C@H](C)[C@@H](O)[C@H](C)C(=O)N[C@H](C(=O)NCCc1nc(-c2nc(C(=O)NCCC[S+](C)C)cs2)cs1)[C@@H](C)O)[C@@H](O[C@@H]1O[C@@H](CO)[C@@H](O)[C@H](O)[C@@H]1O[C@H]1O[C@H](CO)[C@@H](O)[C@H](OC(N)=O)[C@@H]1O)c1c[nH]cn1 | 28.6 |
| CCN1C[C@]2(OC(=O)c3ccccc3NC(C)=O)CC[C@H](OC)[C@@]34[C@@H]2C[C@@H]([C@@H]13)[C@@]1(O)C[C@H](OC)[C@H]2C[C@@H]4[C@]1(O)[C@H]2OC | 98.8 |
| CCOC(=O)CC(SP(=S)(OC)OC)C(=O)OCC (stereo not drawn) | 58.4 |

Set 2
Cell line: HEK-293T/ACE2
Technique: Hoechst nuclei count
Concentration: concentration not given
Time: 16 (unit not given)
Relative to: vehicle
| Compound | viability |
| --- | --- |
| Cc1cn([C@@H]2C[C@@H](O)[C@H](CO)O2)c(=O)[nH]c1=O | 103% |
| O=C1C(O)=C([C@H]2CC[C@H](c3ccc(Cl)cc3)CC2)C(=O)c2ccccc21 | 94.9% |
| COC[C@@H](NC(C)=O)C(=O)NCc1ccccc1 | 107% |
| O=c1[nH]cnc2c1ncn2[C@H]1CC[C@@H](CO)O1 | 107% |
| C/C(O)=C(\C#N)C(=O)Nc1ccc(C(F)(F)F)cc1 | 90.4% |
| CC(=O)OCC(=O)[C@@]1(OC(C)=O)[C@@H](C)C[C@H]2[C@@H]3C[C@H](F)C4=CC(=O)C=C[C@]4(C)[C@@]3(F)[C@@H](O)C[C@@]21C | 106% |
| CN(C)/N=N/c1[nH]cnc1C(N)=O | 98.3% |
| N#Cc1ccccc1-c1cc(-c2ccccn2)cn(-c2ccccc2)c1=O | 98.2% |
| CNC1(C)C2CCC(C2)C1(C)C (stereo not drawn) | 103% |
| Nc1nc(CC(=O)Nc2ccc(CCNC[C@H](O)c3ccccc3)cc2)cs1 | 107% |
| C[C@@H](O)[C@H]1C(=O)N2C(C(=O)O)=C(SCCN=CN)C[C@H]12 | 99.5% |
| COc1ccc(C[C@@H]2c3cc(OC)c(OC)cc3CC[N@+]2(C)CCC(=O)OCCCCCOC(=O)CC[N@@+]2(C)CCc3cc(OC)c(OC)cc3[C@H]2Cc2ccc(OC)c(OC)c2)cc1OC | 99% |

Set 3
Cell line: mouse MPNST tumor cells
Technique: high-content immunofluorescence imaging
Refers to: nuclear SOX9
Concentration: 10 µM
Time: 12 h
Setting: mean of 2 replicates
Relative to: DMSO control
Reading: higher = more nuclear SOX9
| Compound | nuclear SOX9 intensity |
| --- | --- |
| C[C@]12CCC(=O)C=C1C=C[C@@H]1[C@@H]2CC[C@@]2(C)[C@H]1CC[C@@]2(O)CCC(=O)O | 106 % of DMSO |
| O=C1CCCN1CC#CCN1CCCC1 | 101 % of DMSO |
| C[C@]12C/C(=C/O)C(=O)C[C@@H]1CC[C@@H]1[C@@H]2CC[C@@]2(C)[C@H]1CC[C@]2(C)O | 82.1 % of DMSO |
| CCN(C)C(=O)Oc1cccc([C@H](C)N(C)C)c1 | 90.8 % of DMSO and 101 % of DMSO |
| O=C(CCCN1CCC(n2c(=O)[nH]c3ccccc32)CC1)c1ccc(F)cc1 | 146 % of DMSO |
| CN(C)C(=O)Oc1ccc[n+](C)c1 | 96.3 % of DMSO and 93 % of DMSO |
| CCCC(C)C1(CC)C(=O)NC(=O)NC1=O (stereo not drawn) | 108 % of DMSO |

Other studies, line by line
Host: human
Matrix: microsomes or S9
Concentration: 2 µM
Time: 0.5 h
| SMILES | remaining compound [%] |
| --- | --- |
| Cc1cc(Cl)cc(C(=O)NCCC2=NOC(CS(C)(=O)=O)C2)c1NC(=O)c1cc(Br)nn1-c1ncccc1Cl (stereo not drawn) | 35 |
| CCOc1ccccc1N1CCN(Cc2cc(F)ccc2F)CC1 | 43.7 |

Repeated from above (set 3):
| Compound | nuclear SOX9 intensity |
| --- | --- |
| CCN(C)C(=O)Oc1cccc([C@H](C)N(C)C)c1 | 90.8 % of DMSO and 101 % of DMSO |
| O=C(CCCN1CCC(n2c(=O)[nH]c3ccccc32)CC1)c1ccc(F)cc1 | 146 % of DMSO |
| CN(C)C(=O)Oc1ccc[n+](C)c1 | 96.3 % of DMSO and 93 % of DMSO |
| CCCC(C)C1(CC)C(=O)NC(=O)NC1=O (stereo not drawn) | 108 % of DMSO |
